# Published values gathered from unrelated publications.
# Each numbered part is a random draw from the data of one study; scales do not carry over between parts. Positions count from the first letter of the parent shown.

# Block 1 — technique: RNA Bind-n-Seq; form: RNA; matrix: in vitro; tested at: not given; reference: input RNA pool; reading: higher = stronger binding
# Target: RING finger protein unkempt homolog, zinc fingers 1-6, GST-SBP tag (UNK, Homo sapiens, UniProt Q9C0B0, residues 30-357)
# Chain of UniProt Q9C0B0 (30-357, looked up): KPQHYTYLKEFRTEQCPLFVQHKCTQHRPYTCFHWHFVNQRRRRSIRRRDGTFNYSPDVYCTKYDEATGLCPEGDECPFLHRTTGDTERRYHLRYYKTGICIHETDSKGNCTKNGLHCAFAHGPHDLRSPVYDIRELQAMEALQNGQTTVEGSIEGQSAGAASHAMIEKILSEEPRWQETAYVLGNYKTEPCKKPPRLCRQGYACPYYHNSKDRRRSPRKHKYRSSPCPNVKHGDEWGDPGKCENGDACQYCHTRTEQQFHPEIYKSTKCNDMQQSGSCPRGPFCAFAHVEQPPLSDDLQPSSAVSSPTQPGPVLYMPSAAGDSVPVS
# Notes: RNA with constant flanks, human-mouse chimeric sites, ends assumed
Oligonucleotide,bound/input enrichment
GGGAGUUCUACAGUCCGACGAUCCACAGAGCAGCACCUACCCCCUCCUCCUUUCCACACCUGCAAACUCUUUUACUUGGGCUGAAUAUUUAGUGUUAAUUCAUCUCAGCUUUGAGGGCUCCUGUGGCAAAUUCCCGGAUUAAACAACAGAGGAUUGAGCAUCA,0.751 ratio
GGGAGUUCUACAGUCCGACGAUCACCUCCCCCUCCCGCCUCACCCCACCCCCGCUUUUUGGAAAGUUUUUGGCGUUUCUUUUCCUUCCCCAGUUAGAAUUGUUUUUACCACCCCCGCAAGGGUCUAUCGAAGGGCUUGACGGACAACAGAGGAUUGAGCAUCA,7.84 ratio
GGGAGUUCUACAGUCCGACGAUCCAGGGCAUCAUCUCUCGAGCUGUUAAACACCUGUUCAAGAGUAUUGAUGAGAAAAAGACCUCAGCGAUUAAAAAUGGGCUGCCCCCUCCUGAAUUCAAAGUGAAUGCCCAGUUCCUAGAGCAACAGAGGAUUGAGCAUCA,0.402 ratio
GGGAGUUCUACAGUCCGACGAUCAGAGAAAUGAGAAAGAAUCUUACACAAGAAGAGAUGCAAAGAAUGUCUACUAGAGUCCUUUUAGCCACUCUUUCCAUUCCUAUUACUCCUGAGCGAACUGAUAUUGCUCGACUUUUGGAUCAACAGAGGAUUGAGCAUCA,0.159 ratio
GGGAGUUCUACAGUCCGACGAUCCAGACUGUGUCAUACUUUUUAGACAUUCACAUCAGACUUACAGAGCACCUGGCCACAUUCUAGGUUUGUGUUAUUUCUCAGCUAUGGGGGUAUGAUUAUGAGAACACUGCUUAACUAAUGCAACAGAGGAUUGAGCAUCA,0.762 ratio
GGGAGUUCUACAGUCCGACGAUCGUUGCCAGCUUCCGGUUGGCCUCCAUCCGGUUCUCUCCUGAGCUACGGUCCCUGGCACUCUCAAUCCGCCAUCCAACAAACAUGGAUCAGGUAAUGCAGUUUGUGGAGCCCAGCCGGCAGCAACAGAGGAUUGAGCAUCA,0.139 ratio
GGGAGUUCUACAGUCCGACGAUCGGGUGGGUGGUCAUUGCCGUUUGAGCUGCUGAUUUUCAUGAGUCGCCUUCAAAACUCUCGUGUAGGGUUGACACUGUGGGGGGGUGGGGGAUCCAGCUUAUUCUUUUAUUUUCAAGUCCACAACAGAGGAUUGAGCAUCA,0.347 ratio
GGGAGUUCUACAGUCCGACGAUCUUUGUAUUCAUGUUAAGCACACGUGCUGGUGGUCUGGGCAUCAAUCUUGCAACUGCUGAUGUAGUCAUUUUAUAUGAUUCUGAUUGGAAUCCGCAAGUUGAUCUUCAGGCUAUGGACCGUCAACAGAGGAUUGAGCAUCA,0.259 ratio

# Block 2 — technique: DHFR PCA, deep sequencing; matrix: yeast; together with: (+)-ABA 58 µM; reference: wild-type fitted maximum; reading: higher = stronger binding
# Target: ABI1, truncated, D143A, DHFR fusion (Arabidopsis thaliana)
# Notes: methotrexate growth selection, single substitutions
# Starting sequence: PYL1, truncated, DHFR fusion (Arabidopsis thaliana); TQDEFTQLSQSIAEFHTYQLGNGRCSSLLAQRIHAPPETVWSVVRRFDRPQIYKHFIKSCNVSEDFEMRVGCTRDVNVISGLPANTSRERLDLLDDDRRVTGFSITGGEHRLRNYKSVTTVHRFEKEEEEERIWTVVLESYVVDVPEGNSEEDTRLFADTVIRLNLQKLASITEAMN; partner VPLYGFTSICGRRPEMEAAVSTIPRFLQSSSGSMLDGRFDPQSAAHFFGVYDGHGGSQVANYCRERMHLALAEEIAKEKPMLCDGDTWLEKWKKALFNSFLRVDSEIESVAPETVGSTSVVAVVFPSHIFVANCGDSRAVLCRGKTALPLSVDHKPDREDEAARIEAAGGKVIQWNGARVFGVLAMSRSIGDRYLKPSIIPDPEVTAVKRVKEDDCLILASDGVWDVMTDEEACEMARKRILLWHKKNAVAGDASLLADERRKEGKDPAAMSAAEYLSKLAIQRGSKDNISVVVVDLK
Substitution,relative binding score [%]
T101W,13.3
R123P,86.9
V143H,-4.45
E131P,96.1
E89G,-3.74
S9L,71.7
R88D,27.8
R32D,56.4
Q19F,76.3
F47E,-17.2
T160G,53.9
L169M,35.5
Y53G,6.86
W41K,-2.29
I105F,8.95

# Block 3 — technique: RNA Bind-n-Seq; form: RNA; matrix: in vitro; tested at: 365 nM; reference: no-protein control; reading: higher = stronger binding
# Target: RNA binding protein fox-1 homolog 2, RRM domain, GST-SBP tag (RBFOX2, Homo sapiens, UniProt O43251-10, residues 100-194)
# Notes: natural RNA segment, single round, ends assumed
# Residues (chain): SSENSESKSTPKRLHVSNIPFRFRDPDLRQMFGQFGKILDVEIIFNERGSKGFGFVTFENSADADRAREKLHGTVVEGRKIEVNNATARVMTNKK
Oligonucleotide,RBNS enrichment (R)
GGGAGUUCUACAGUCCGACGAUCAGCAGCAAUUAAGUUGUUUGUAUUUUGCUUAACUAAAACAAAAAUGCUUUUAUCUUGCUAUAGAAUAAACACAUUUCAGUAAAAACUGUGGACUGUAUUUUGAUGCAACAUGGAAUUCUCGGGUGCCAA,1.02
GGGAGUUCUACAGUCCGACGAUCCCCAACCUCACCCUCCUGACCCCCAUGUAAAUAUUGUUCUGCUGUCUGGGACUCCUGUCUAGGUGCCCCUGAUGACGGGAUGCUCUUUAAAUAAUAAAGAUGGUUUUGAUUGGAAUUCUCGGGUGCCAA,0.258
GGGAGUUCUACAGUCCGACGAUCAAGCGAAUGGGUCAUUUCUAAAGAGACCAGGGAGCCCACUCCUCAUGGGCUCUCCGUGGUGAAGAACAAAGGGUACCCCAAUGGCCUCUCACCAUCACUGUCCUCCAGGGUGGAAUUCUCGGGUGCCAA,0.284
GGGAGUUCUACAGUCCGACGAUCCCCUUAUUUUGUGUUUUCCAUCCCUCUCCCUUAACAGGAUUGAAAUAAAACAUGCUUCUGUUUUUGUAAAAAUAAUUUUUCCUUUACACUGGAGAUUUUAUUCUAUCAGUUGGAAUUCUCGGGUGCCAA,0.994
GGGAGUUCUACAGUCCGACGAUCUUGGGAAAUCGGAAUCAAAGUAUUGGUGCCAGCUCACUGAAGAUCUGAUUGGGUCAACAGUUGAUUAGUGGAAGACGGAGAGCAGAAGAAUUUUGUCAUAUCUAUUAGGCUGGAAUUCUCGGGUGCCAA,0.485
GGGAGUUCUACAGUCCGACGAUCUGGACACCCAUCUCAACAGGGUCACUUGGUAAUUAACAAUAGCCAUAUAAAUGCGGAUACAGGUUACUACCCUCACCCUUUACCUUCCUCAGGUAACAGUCGUAGAUACCUGGAAUUCUCGGGUGCCAA,0.334
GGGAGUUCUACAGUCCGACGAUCAGUAAUUGGCCUUUCUGAGCUGAUUUUUCCAUCUUUUGUAAUUAUCUUUAUUAAAAAAUUGUACUUGAUUAUCUUUUGUCUGUUUAUUACUACAAUAUGAAGUCUUGUUUUGGAAUUCUCGGGUGCCAA,1.13
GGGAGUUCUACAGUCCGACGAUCUAAGUCUUUGAUUUUAUGAUUUAUUUCUGUAUGGCACUGGAUAAAAAUAUUAUUAAAACAUUUCUGCCUAUGGUUAAAAAUCCAGAAAUCAAAGAAAUGAUCUUCAUGAUUGGAAUUCUCGGGUGCCAA,0.522

# Block 4 — target: CCNE1, cyclin fold, Cln2 fusion (human); technique: yeast growth competition, sequencing; matrix: yeast; notes: strong parent motif; reference: not given; reading: higher = stronger binding
# Starting sequence: E2F1 docking peptide (human); PPVKRRLDFETDH; partner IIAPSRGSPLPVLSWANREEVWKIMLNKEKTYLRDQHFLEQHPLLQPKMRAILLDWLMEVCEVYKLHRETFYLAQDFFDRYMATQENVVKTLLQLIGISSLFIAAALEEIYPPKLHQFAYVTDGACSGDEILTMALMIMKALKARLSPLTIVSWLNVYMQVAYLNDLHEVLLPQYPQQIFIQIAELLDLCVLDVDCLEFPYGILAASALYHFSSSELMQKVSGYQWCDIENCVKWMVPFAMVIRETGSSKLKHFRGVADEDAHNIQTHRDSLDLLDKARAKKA
Substitution,normalised enrichment score
R6T,4.39
R6S,3.08
L7V,1.29
D8L,6.19
T11S,6
R6D,0.434
V3C,4.85
T11N,6.19
L7H,0.17
L7C,0.293
R5V,0.758
D8Q,6
P2D,5.65
D12F,6.36
D8K,6.26
F9E,0.658
L7W,0.244
F9Q,0.819
L7I,4.45
P2N,6.44
L7M,0.782
T11R,6.01
D12R,6.39
P2H,6.66
F9Y,3.45

# Other studies, line by line
Molecule,target,test,test system,conditions,scale,measurement,value
"PhoQ, residues 284 288 289 292 302 303 TGYLSA","PhoP, residues 12 14 15 18 19 NQFFI (Escherichia coli, UniProt P23836)","Sort-seq, measured: YFP reporter",E. coli,"PhoQ-PhoP variant library, together with: 10 µM Mg2+","reference: high Mg2+ state, higher = stronger signaling",fold induction,13.8

# Excerpt of the above (block 2):
Substitution,relative binding score [%]
R32D,56.4
S9L,71.7
F47E,-17.2
W41K,-2.29
Q19F,76.3
L169M,35.5
I105F,8.95
E89G,-3.74
T160G,53.9
